Results of several laboratories.
Lines come from different studies, so protocols differ. “And” joins repeats or separate records; there may be more than shown. Numbers after ± are the reported error.

| SMILES | target or system | test | system | setting | how to read | measurement | value |
| --- | --- | --- | --- | --- | --- | --- | --- |
| CC(C)NCC(O)c1ccc(O)c(O)c1 (stereo not drawn) | – | – | ventricular cardiomyocytes, C57BL/6 mouse | dose not given, 0.716 s | – | sarcomere length | 1.72 µm |
| Cn1cc(-c2ccc(-c3cncc(Cl)c3N3CCC4(CCNC4=O)CC3)cc2)cn1 | COLO 205 | gene expression, microarray, item: ASS1 mRNA | – | concentration not given, 2 h | baseline: untreated cells | log2 fold change | 3.47 |
| CO[C@@H]1[C@@H](OC(N)=O)[C@@H](O)[C@H](Oc2ccc3c(O)c(NC(=O)c4ccc(O)c(CC=C(C)C)c4)c(=O)oc3c2C)OC1(C)C | – | – | Brca1 wild-type MEFs, mouse | 12.5 µM | – | colony survival | 94% and 92% and 91.9% and 83.3% and 75.8% |
| CN1CCN(C(=O)CN(c2cc(C(F)(F)F)ccc2Cl)S(=O)(=O)c2ccccc2)CC1 | Cyclin-dependent kinase 2 (CDK2, Homo sapiens, UniProt P24941) | binding | – | – | – | Kd | > 100 µM |
| C#Cc1ccc(C(F)(F)F)cc1C=O | – | HPLC-MS | – | pH 10.2, added: 50 mM N-α-acetyl-lysine | – | pseudo-first-order rate constant | 3 h⁻¹ |
| N#CCC1CCN(c2nc(Nc3ccc(N4CCC(O)CC4)cc3)c3c(=O)[nH]ncc3n2)CC1 | – | Olink multiplex | human, serum | 20 mg, day 29, unit not given | baseline: baseline | IL-18 level change | -1.02 |
| O=C(NC[C@H]1CN(c2ccc(N3CCOCC3=O)cc2)C(=O)O1)c1ccc(Cl)s1 | – | – | human moderate renal impairment, plasma | 10 mg, mean, unit not given | baseline: baseline | maximum prothrombin time prolongation | 8.49 |
| Oc1ccc(Br)cc1C=NCCN1CCOCC1 | – | hydroxyl radical scavenging | – | 200 µM | – | inhibition | 43.5% |
| CCn1c(SCC(=O)Nc2ccccc2OC)nnc1-c1ccco1 | Cyclin-dependent kinase 2, with cyclin A (CDK2, Homo sapiens, UniProt P24941) | – | – | – | – | Kd | > 100 µM |
| NC(=O)c1cnc2[nH]ccc2c1N[C@@H]1[C@@H]2CC3C[C@H]1C[C@@](O)(C3)C2 | – | flow cytometry | Japanese healthy men, blood | oral, 30 mg twice daily, 72 h after day 7 dose | baseline: baseline | CD8+CD28+ naive T-cell change | -1.07% |
| COc1ccc(-c2cncc(N[C@@H](C)c3cccc(NC(=O)c4cncc(C)c4)c3)n2)cc1OC | – | item: rno-miR-151-3p | rat SU5416/hypoxia model, lung | dose not given, unit not given | baseline: SU5416/hypoxia vehicle | delta delta Ct | 0.00233 |
| CC1=CS(=O)(=O)c2ccccc21 | – | CoA-CPM signal reduction, CPM fluorescence thiol | cell-free biochemical | assay interference counter-screen, added: CoA replacing acetyl-CoA | – | IC50 | > 125 µM |
| C=CCn1c(=O)c2cnc(Nc3ccc(N4CCN(C)CC4)cc3)nc2n1-c1cccc(C(C)(C)O)n1 | – | – | HNSCC patients | dose not given, single agent first week, then cisplatin/docetaxel | – | histological response | -95% |
| CN(C)C(=O)c1cc2cnc(Nc3ccc(N4CCNCC4)cn3)nc2n1C1CCCC1 | – | RNA-seq GSEA, item: HALLMARK_IL2_STAT5_SIGNALING gene set | MB002 tumour | concentration not given | baseline: vehicle, direction not given | enrichment score | 0.29 |
| O=C(O)CNC(=O)Cc1ccccc1 | – | – | ventricular cardiomyocytes, C57BL/6 mouse | dose not given, 0.428 s | – | sarcomere length | 1.72 µm |
| COc1nc(-c2cc(C)c(N[C@@H](C)c3cc(F)cc(F)c3)nn2)ccc1-n1cnc(C)c1 | – | item: Aβ40 | rat Sprague-Dawley male, brain | oral, 5 mg/kg daily for 9 days, 4 h after dose | baseline: vehicle | change in level | 29% |
| Cc1cn(-c2ccc3n(c2=O)CCN([C@@H](C)[C@@H]2CC[C@H](c4cc(F)c(Cl)cc4C(F)(F)F)O2)C3=O)cn1 | – | – | human, CSF | 300 mg single dose, serial CSF sampling | baseline: placebo and baseline | maximum CSF Aβ40 change | -22.3% |
| CC(=O)Oc1cc2c(s1)CCN(C(C(=O)C1CC1)c1ccccc1F)C2 (stereo not drawn) | – | platelet aggregation, light transmission aggregometry | human patients, platelet-rich plasma | dose not given, 2 h, added: TRAP 15 µM | – | patients with IPA above 90% | 0% |
| C[C@H](Oc1ccc(Br)cc1-c1ccon1)C(=O)O | – | response latency | human, tibialis anterior muscle | 800 mg, 30 Hz+30 s | – | difference from placebo | 0.069% |
| c1ccc(-c2n[nH]cc2-c2ccnc3ccccc23)nc1 | – | kinase binding, competitor, MIB/MS competition, item: PBS2 | Candida albicans cell lysate | 1 µM | baseline: DMSO | log2 fold change | 1.37 |

| SMILES | target or system | test | system | setting | how to read | measurement | value |
| --- | --- | --- | --- | --- | --- | --- | --- |
| CCCSc1nsc(NC(=O)c2cnc3ccccc3n2)n1 | – | CoA-CPM signal reduction, CPM fluorescence thiol | cell-free biochemical | assay interference counter-screen, added: CoA replacing acetyl-CoA | – | IC50 | > 125 µM |
| N#Cc1ccc2c(-c3ccncc3)c(-c3ccc(F)cc3)nn2c1 | – | kinase binding, competitor, MIB/MS competition, item: CMK1 | Candida albicans cell lysate | 100 nM | baseline: DMSO | log2 fold change | 0.185 |
| O=C(O)CCC(=O)O.[2H]C([2H])([2H])Oc1cc(C)c2[nH]ccc2c1CN1CC[C@@H](C2CC2)C[C@H]1c1ccc(C(=O)O)cc1 | – | item: complement fragment Bb | healthy humans, plasma | multiple dose, all groups | – | maximum inhibition | ~50% |
| Oc1ccc(/C=C/c2cc(O)cc(O)c2)cc1 | – | H&E staining | Mus musculus, chronic-plus-binge ethanol, liver | dose not given | – | steatosis area | 0.503% and 0.461% and 0.487% and 0.557% |
| CC(c1cc2ccccc2s1)N(O)C(N)=O (stereo not drawn) | – | – | human blood | 3 µM, added: A23187 | – | 20-OH-LTB4 level | 236 ± 96 pg/mL |
| CSc1ccc(-c2nsc(N)n2)cc1 | – | CoA-CPM signal reduction, CPM fluorescence thiol | cell-free biochemical | assay interference counter-screen, added: CoA replacing acetyl-CoA | – | IC50 | > 125 µM |
| CC[C@H](C)[C@H](NC(=O)[C@H](CO)NC(=O)[C@H](CCCNC(=N)N)NC(C)=O)C(=O)N[C@H]1CSSC[C@@H](C(=O)N[C@H](C(N)=O)[C@@H](C)O)NC(=O)[C@H](CCCNC(=N)N)NC(=O)[C@H](Cc2c[nH]cn2)NC(=O)[C@H](Cc2cccc3ccccc23)NC(=O)CNC(=O)[C@H](Cc2c[nH]c3ccccc23)NC(=O)[C@H](CC(=O)O)NC(=O)[C@H](CCC(N)=O)NC(=O)[C@H](Cc2cccc3ccccc23)NC(=O)[C@H](C(C)C)NC1=O | – | complement activation, inhibitor, ELISA, item: C3b | normal human serum | – | – | IC50 | 4.06 ± 0.22 µM |
| N=C(N/N=C/c1ccc2c(c1)OCO2)SC1CC(=O)N(c2ccc(Br)cc2)C1=O (stereo not drawn) | – | CoA-CPM signal reduction, CPM fluorescence thiol | cell-free biochemical | assay interference counter-screen, added: CoA replacing acetyl-CoA | – | IC50 | > 125 µM |
| C[C@@H](NC(=O)N1C(=O)[C@H](Cc2ccnc(N)c2)[C@H]1C(=O)O)C1CCCCC1 | – | – | human | iv infusion, 2.25 mg/kg/h, 24 h | – | aPTT AUEC | 7210 h·s |
| N#Cc1ccc2c(c1)[C@H]1CCCN(C(=O)c3ccc4[nH]cnc4c3)[C@H]1C2 | – | item: FPG | human | 240 mg once daily, day 28, adjusted mean | baseline: placebo | change from baseline | 5.9 mg/dL |
| OCC(O)CO | – | targeted LC-MS metabolomics | Mus musculus male wild type, liver | drinking water, 5% w/v, 2 days | – | hexose phosphate concentration | 1.01 mM and 0.508 mM and 0.722 mM and 0.19 mM |
| C[C@H]1C[C@H]2CSC(N)=N[C@@]2(c2nc(NC(=O)c3ccc(OC(F)F)cn3)cs2)CO1 | – | item: total Aβ | healthy adults, plasma | 400 mg single dose, 6 h post-dose | baseline: placebo | percent change from baseline | -59.3% |
| C[C@@H](O)CCOC(=O)C[C@@H](C)O | – | – | human | oral drink, dose not given, 30 min post dose, median, all participants | – | plasma NEFA | 0.4 mM |
| O[C@H]1CCCN[C@@H]1CCCn1cnc2c(Cl)c(Cl)ccc21 | – | ELISA, item: Pro-C6 | healthy human volunteers, serum | intraduodenal, 100 mg twice daily, day 14, multiple ascending dose | – | maximum reduction | 10.2% |
| Cc1nc(C(=O)N2CCC[C@H]2C(=O)N[C@@H](COC(C)(C)C)C(=O)N[C@@H](CC(C)C)C(=O)NC(C)(C)C(=O)N[C@@H](CC(C)C)C(=O)N[C@@H](CC(C)C)C(=O)NC(C)(C)C(=O)NC(C)(C)C(=O)NCCC(=O)NC2(CN(C)C)CCC2)co1 | – | – | small unilamellar vesicles | concentration not given | – | calcein leakage | 0% |
| C=CC(=O)N1CCC(c2ccc(C(N)=O)c(-c3ccc(Oc4ccccc4)cc3)n2)CC1 | – | tumour response, Lugano classification | patients with relapsed/refractory MCL | independent review, 16.4 months follow-up | – | PR | 56.6% |
| Cc1c(Cl)cccc1NC(=O)N1CCCN(c2nc(-c3ccccc3)ns2)CC1 | – | CoA-CPM signal reduction, CPM fluorescence thiol | cell-free biochemical | assay interference counter-screen, added: CoA replacing acetyl-CoA | – | IC50 | > 125 µM |
| CCO[C@H]1CCN(Cc2c(OC)cc(C)c3[nH]ccc23)[C@H](c2ccc(C(=O)O)cc2)C1 | – | item: PNH-type erythrocytes | PNH patients, blood | 50 mg/200 mg, week 4, mean | – | PNH red cell clone size | 73.7% |
| Cn1cc(Nc2nccc(-c3ccc4c(c3)CN(C3COC3)CC[C@H]4NC(=O)c3cn(C(C)(C)C)nn3)n2)cn1 | – | item: ILK signalling | mouse splenic B cells, mouse | 30 mg/kg, IgD-activated B cells in vivo | baseline: vehicle, direction not given | pathway activation z-score | 2.29 |

For quick reference, copied from above:
| SMILES | target or system | test | system | setting | how to read | measurement | value |
| --- | --- | --- | --- | --- | --- | --- | --- |
| CCCSc1nsc(NC(=O)c2cnc3ccccc3n2)n1 | – | CoA-CPM signal reduction, CPM fluorescence thiol | cell-free biochemical | assay interference counter-screen, added: CoA replacing acetyl-CoA | – | IC50 | > 125 µM |
| N#Cc1ccc2c(-c3ccncc3)c(-c3ccc(F)cc3)nn2c1 | – | kinase binding, competitor, MIB/MS competition, item: CMK1 | Candida albicans cell lysate | 100 nM | baseline: DMSO | log2 fold change | 0.185 |
| O=C(O)CCC(=O)O.[2H]C([2H])([2H])Oc1cc(C)c2[nH]ccc2c1CN1CC[C@@H](C2CC2)C[C@H]1c1ccc(C(=O)O)cc1 | – | item: complement fragment Bb | healthy humans, plasma | multiple dose, all groups | – | maximum inhibition | ~50% |
